Experimental data from different studies.
Parts stem from different laboratories: compare values within a part only. Positions count from the first letter of the parent shown.

Sample 1 — technique: RNA Bind-n-Seq; molecule type: RNA; matrix: in vitro; concentration: not given; setting: RNA with constant flanks, ends assumed; relative to: input RNA pool; reading: higher = stronger binding
Target: RING finger protein unkempt homolog, zinc fingers 1-6, GST-SBP tag (UNK, Homo sapiens, UniProt Q9C0B0, residues 30-357)
Chain of UniProt Q9C0B0 (30-357, looked up): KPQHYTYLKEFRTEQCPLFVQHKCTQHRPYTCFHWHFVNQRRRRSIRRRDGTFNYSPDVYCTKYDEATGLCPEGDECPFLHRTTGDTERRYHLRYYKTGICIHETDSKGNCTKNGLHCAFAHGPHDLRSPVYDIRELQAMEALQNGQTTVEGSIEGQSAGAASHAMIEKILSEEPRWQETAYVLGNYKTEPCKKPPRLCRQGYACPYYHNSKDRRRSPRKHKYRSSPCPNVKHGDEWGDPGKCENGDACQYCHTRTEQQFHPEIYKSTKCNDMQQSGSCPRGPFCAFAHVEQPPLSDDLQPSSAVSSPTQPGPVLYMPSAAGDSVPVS
All sequences stand within: GGGAGUUCUACAGUCCGACGAUC … CAACAGAGGAUUGAGCAUCA
| Sequence | bound/input enrichment [ratio] |
| --- | --- |
| GCAGUUACCAGUUUCAGCAGGCUUUGCUUUUAUACUGUUGUGAAAUUUCAUCUCUCUGUGCCGCACCUUCCUUUUUUCCAUUGUAGAUAUAAAAAGUGACUUUUGCCUCAUGAAAGAGUU | 1.52 |
| GACCGUGCCCUAGAAUUUGCCCCUGCCUGCCAUCGAUUCAAAAUUCUCAAAGCAGAAUGUUCCGCAAUGCUUGGUCGAUACCCAGAAGCACAGUUUGUGGCCAGUGACAUUUUACGAAUG | 0.34 |
| GAACCUGAGCCAGCGGAAGAAUACACAGAGCAAAGUGAGGUUGAAUCAACAGAGUAUGUCAACCGGCAGUUCAUGGCAGAAACACAGUUCAGCAGUGGUGAGAAGGAGCAAGUGGAUGAG | 0.236 |
| CGCAAUACUAUUGCUUCCAUUGCUGCUGGUGUACUAUUUUUUACAGGCUGGUGGAUUAUCACCGAUGCAGCUGUUAUUUAUCCCACCAUGAAAGAUUUCAACCACUCAUACCAUGCCUGU | 0.245 |
| AGAUAAACUGUCCAUUCUUUCAUUUGGAAGCUAAUUAUGUAGACCAUUUAAAUGGAUAUUACCGAUGACAACUUAAUACAAUGUUUUCUCUAGGCCUAAAGAUGUCGGAAGACCCAAGGC | 0.389 |
| AAUUAUCAAGUUUUAUUCACCUCAAAUCCCACUGGGUUCUUAAAACUUGAAAAUUCAAAUUGCCGAGAAUUAUGAGACACAAUGUGAUGUUUAGUUAAAGUCAUGCUAUACCUUUCUGGG | 0.435 |
| UUUCGCUUGGCGCUGGGCAGCUUCGUGGAGGAGUACAACAACAAGGUUCAGCUUGUUGGUUCCGAUGAGGAGAGUUCAGAGUUUAUUUGCAGAAACACCUUUGACCACCCAUACCCCACC | 0.178 |
| AAUAUGAGGGCCAGGCAGCAGGCCAAGCGAGAAGCUUGCAGUGAUGCCAUGUCUGGAGCUACCGAUACAAAUAAGAAAGAGUCCUGGUUCUUGCCUGAAGAGAAAGCUAAUGUUUUUUCA | 0.131 |

Sample 2 — technique: protein-binding microarray; molecule type: hairpin DNA; matrix: in vitro; concentration: not given; relative to: not given; reading: higher = stronger binding
Target: Hepatocyte nuclear factor 3-beta, forkhead domain (FOXA2, Homo sapiens, UniProt Q9Y261, residues 142-269)
Setting: whole hairpin DNA, median over replicate spots
Construct (chain): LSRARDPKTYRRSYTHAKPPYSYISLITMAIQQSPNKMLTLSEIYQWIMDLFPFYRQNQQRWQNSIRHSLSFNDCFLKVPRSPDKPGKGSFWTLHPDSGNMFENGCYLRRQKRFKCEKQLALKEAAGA
| Sequence | median fluorescence |
| --- | --- |
| GAGGCCATGCACGCAACGCCTCCTGGCGTTGCGTGCATGGCCTCACACTC | 3470 a.u. |
| GAGGCCATGTACACAACGCCTCCTGGCGTTGTGTACATGGCCTCACACTC (5mC at 12) | 3710 a.u. |
| GAGGCCATGCAAACTACGCCTCCTGGCGTAGTTTGCATGGCCTCACACTC | 3180 a.u. |
| GAGGCCCGGTAAACAACGCCTCCTGGCGTTGTTTACCGGGCCTCACACTC (5mC at 37) | 3810 a.u. |
| GAGGCCATCTAACCAACGCCTCCTGGCGTTGGTTAGATGGCCTCACACTC (5mC at 9) | 2890 a.u. |
| GAGGCCATCGAACCAACGCCTCCTGGCGTTGGTTCGATGGCCTCACACTC (5mC at 35) | 3310 a.u. |
| GAGGCCATGTAACGAACGCCTCCTGGCGTTCGTTACATGGCCTCACACTC | 3180 a.u. |
| GAGGCCATATAACCAACGCCTCCTGGCGTTGGTTATATGGCCTCACACTC | 2910 a.u. |

Sample 3 — target: CCNB3, cyclin fold, Cln2 fusion (human); technique: yeast growth competition, sequencing; matrix: yeast; setting: weak parent motif; relative to: not given; reading: higher = stronger binding
Starting sequence: WEE1 docking peptide (human); HKTFRKLRLFDTP
| Substitution | normalised enrichment score |
| --- | --- |
| HKTFRKLRLFDTL [P13L] | -0.104 |
| HKTFRKERLFDTP [L7E] | 0.107 |
| HKTFRKLRLRDTP [F10R] | -0.234 |
| YKTFRKLRLFDTP [H1Y] | 0.047 |
| GKTFRKLRLFDTP [H1G] | 0.00945 |
| HKTFRKPRLFDTP [L7P] | 0.235 |
| HKTFRKLRYFDTP [L9Y] | 0.309 |
| HKTFRKLRLFRTP [D11R] | 0.117 |

Other studies, line by line
| Molecule | target | test | test system | conditions | measurement | result |
| --- | --- | --- | --- | --- | --- | --- |
| LAVFPAMFW | HLA class I histocompatibility antigen, A alpha chain, allele A*80:01 (Homo sapiens, UniProt P04439) | peptide-MHC binding | peptide | concentration not given | binding | inactive |

Excerpt of the above (sample 1):
| Sequence | bound/input enrichment [ratio] |
| --- | --- |
| AGAUAAACUGUCCAUUCUUUCAUUUGGAAGCUAAUUAUGUAGACCAUUUAAAUGGAUAUUACCGAUGACAACUUAAUACAAUGUUUUCUCUAGGCCUAAAGAUGUCGGAAGACCCAAGGC | 0.389 |
| AAUUAUCAAGUUUUAUUCACCUCAAAUCCCACUGGGUUCUUAAAACUUGAAAAUUCAAAUUGCCGAGAAUUAUGAGACACAAUGUGAUGUUUAGUUAAAGUCAUGCUAUACCUUUCUGGG | 0.435 |
| UUUCGCUUGGCGCUGGGCAGCUUCGUGGAGGAGUACAACAACAAGGUUCAGCUUGUUGGUUCCGAUGAGGAGAGUUCAGAGUUUAUUUGCAGAAACACCUUUGACCACCCAUACCCCACC | 0.178 |
| AAUAUGAGGGCCAGGCAGCAGGCCAAGCGAGAAGCUUGCAGUGAUGCCAUGUCUGGAGCUACCGAUACAAAUAAGAAAGAGUCCUGGUUCUUGCCUGAAGAGAAAGCUAAUGUUUUUUCA | 0.131 |
